Results gathered from unrelated publications.
A part holds a random share of what one study measured.

Sample 1
Target: Prothrombin, mature alpha-thrombin (F2, Homo sapiens, UniProt P00734)
Method: aptamer microarray, sandwich
Form: DNA with 2'F-ANA
Medium: in vitro
Tested at: 200 nM
Setting: whole 15-mer aptamer, many near background
Together with: Cy3 exosite-II aptamer, 400 nM
Reading: higher = stronger binding
Quantity: mean fluorescence intensity
Sequence: GGTTGGTGTGGTTGG
Modification = 2'F-ANA at 2 3 5 6 7 9 11 13 15; value = 66.9 a.u.
Modification = 2'F-ANA at 1 2 4 6 7 9 11 12 13 14; value = 48.8 a.u.
Modification = 2'F-ANA at 1 6 8 9 10 11 15; value = 58 a.u.
Modification = 2'F-ANA at 2 3 5 6 7 8 10 12 13 14; value = 49.4 a.u.
Modification = 2'F-ANA at 2 3 4 8 15; value = 678 a.u.
Modification = 2'F-ANA at 2 5 6 8 11 12 13 15; value = 87.2 a.u.
Modification = 2'F-ANA at 2 3 6 7 8 9 11 15; value = 674 a.u.
Modification = 2'F-ANA at 2 3 4 5 11 12 13 14; value = 50.7 a.u.
Modification = 2'F-ANA at 7 11 12 14 15; value = 224 a.u.
Modification = 2'F-ANA at 4 6 8 9 11; value = 212 a.u.
Modification = 2'F-ANA at 1 4 5 11 15; value = 54.7 a.u.
Modification = 2'F-ANA at 1 2 3 5 6 7 9; value = 61.6 a.u.
Modification = 2'F-ANA at 1 2 3 4 9 10 12; value = 77.6 a.u.
Modification = 2'F-ANA at 2 6 8 9 10 13 15; value = 149 a.u.
Modification = 2'F-ANA at 2 3 5 6 9 11 14 15; value = 50.1 a.u.
Modification = 2'F-ANA at 2 3 4 5 7 8 12 13; value = 131 a.u.
Modification = 2'F-ANA at 1 4 5 6 12 14 15; value = 47.1 a.u.
Modification = 2'F-ANA at 4 8 9 10 12 13; value = 81.3 a.u.
Modification = 2'F-ANA at 4 5 6 7 9 11 12 14 15; value = 51.1 a.u.
Modification = 2'F-ANA at 1 3 4 6 7 9 11 13; value = 105 a.u.
Modification = 2'F-ANA at 1 3 4 6 9 10 12 13 15; value = 154 a.u.
Modification = 2'F-ANA at 1 5 7 9 10 11 12 14; value = 44.3 a.u.
Modification = 2'F-ANA at 1 2 5 9 15; value = 64.1 a.u.

Sample 2
Target: Histone acetyltransferase KAT6A, both winged helices, GST fusion (KAT6A, Homo sapiens, UniProt Q92794, residues 1-181)
Method: protein binding microarray
Form: double-stranded DNA, one strand shown
Medium: in vitro
Tested at: not given
Setting: 8-mer, flanks averaged, mean of 2 arrays, mostly near background
Baseline: not given
Reading: higher = stronger binding
Quantity: E-score
Target sequence (chain): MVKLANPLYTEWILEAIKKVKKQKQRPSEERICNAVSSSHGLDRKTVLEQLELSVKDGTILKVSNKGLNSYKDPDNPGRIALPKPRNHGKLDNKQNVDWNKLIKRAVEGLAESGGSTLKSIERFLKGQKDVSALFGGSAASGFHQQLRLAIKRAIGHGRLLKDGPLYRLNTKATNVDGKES
Sequence = CAGAATCC; value = -0.0871
Sequence = GATTGCTA; value = -0.00393
Sequence = TAAGATAA; value = -0.111
Sequence = ACGTCCGG; value = 0.137
Sequence = GTCATGAA; value = -0.0332
Sequence = TGGGTCAA; value = -0.164
Sequence = ACTGTAGC; value = 0.00867
Sequence = AACGCAGC; value = 0.0835
Sequence = GGCTCACC; value = 0.0225
Sequence = AACAACTG; value = -0.0133
Sequence = GATAAGCC; value = -0.0807
Sequence = GAGGGCCC; value = -0.111
Sequence = CGGCATAA; value = 0.278
Sequence = CAAATTGC; value = -0.0291
Sequence = CGTGGCCA; value = -0.0314
Sequence = ACAACGAA; value = -0.0606
Sequence = AACGTACG; value = 0.164
Sequence = CGAATGCA; value = 0.00133
Sequence = CAAAGGCA; value = -0.0724
Sequence = AGTCAGTG; value = -0.204
Sequence = AATCATCG; value = 0.0846

Sample 3
Target: RING finger protein unkempt homolog, zinc fingers 1-6, SBP tag (UNK, Homo sapiens, UniProt Q9C0B0, residues 30-357)
Sequence of UniProt Q9C0B0 (30-357, looked up): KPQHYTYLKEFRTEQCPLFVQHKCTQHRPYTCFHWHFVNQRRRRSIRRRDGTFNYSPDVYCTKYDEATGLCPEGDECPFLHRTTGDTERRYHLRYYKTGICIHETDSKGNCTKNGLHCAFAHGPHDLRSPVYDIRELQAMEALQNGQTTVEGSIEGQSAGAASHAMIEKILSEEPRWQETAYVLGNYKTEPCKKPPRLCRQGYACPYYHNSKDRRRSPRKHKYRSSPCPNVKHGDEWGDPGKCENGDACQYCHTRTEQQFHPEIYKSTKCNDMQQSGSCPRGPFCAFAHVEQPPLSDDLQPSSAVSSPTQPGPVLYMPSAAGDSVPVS
Method: RNA Bind-n-Seq
Form: RNA
Medium: in vitro
Tested at: 100 nM
Setting: RNA with constant flanks, vertebrate orthologous sites, ends assumed
Baseline: input RNA pool
Reading: higher = stronger binding
Quantity: bound/input enrichment
Shared flanks, not repeated: GGGAGUUCUACAGUCCGACGAUC … CAACAGAGGAUUGAGCAUCA
Sequence = AGCAACCCAAGGAUUCAGGACUGGUUUUACAAAUAUACCAAGCAGAUAUGGAACUAACAAUAGAAUUGGACAACCAAGACCAUGAUGUACUGUAAUUUAAUUUAUUUUUAUGAAGAAUAU; value = 0.721 ratio
Sequence = CUUUUUUCUCUCUUUCCCCUUCCUUUUCCUUUCUGGGGGGUACAGUUUGCUCUCUCCCGAUCGUGAUCGUAACAAACUGAUCUGUUCUGGGUGUUGCUCUAGUGACAUGCGAUUCUAUAG; value = 0.82 ratio
Sequence = GUCAUCUGACUGGGUGAAGACUGUUCCAAGUUACAACCAAACAAAUAGCUCCAUGGACUUUAGAAAUUAUAUGAUGAGAGAUGAGACUCUGGAACCACUGCCCCAAAACUGGGAAAUGGC; value = 1.02 ratio
Sequence = CCGCCGAUUCACUCAUCGGGAGAGCGGCACACAUAGCUGUUCUGGAUUCGGAAAUAUUUUUAGAGAAAUUCUUUCUGGUUGCUGCCCUCAAAUAUUUCCAGUAGAAUAAAAGCAUUGUUA; value = 0.416 ratio
Sequence = GGGUCGGGCUCCUUGGGGAGCUGCUGGCCACUUGGCGGCACCUGACUUAGGACAGUGACGUGAUAGGUAGGCUUGUGGUUUUUUAAUUUAAUGACAUUAAGACUUAAUCCACUAAAAUUU; value = 0.488 ratio
Sequence = GUCUGCCCCUAAGUGCACGAGCAUCUGUGCUAACUCUAGAGCUCAUCAUGCGUUUCAUCAUAUUUACACACCAGUUCCCUAAGAACAGCAGUAUAGAUUCAAAGGGACGCCGAUGCUUCC; value = 0.343 ratio
Sequence = UGGGUUACUCCUAUUAUUAUCAAGUAGCUGGAAUUGUGAAGGUCGGAGUAGUUAGAUCUUUAGCUUUUAUUCUUUUUUUUUUUUUUGUAUUACUAUCCAUGUGUAUAAAUUAUUGAUCAU; value = 5.35 ratio
Sequence = UCCUGAACGUGUUCUAGCUUGUGAUCCUUCAAAGAUGGGUUAUGCGUUAAUUCUAGGUACUAGAAAUGUUUGCGUCUCUCUUUCCACUGAUUAGAGAAACAGGCAUCAAAAAGAGAAAUA; value = 0.246 ratio
Sequence = AACUGCUGGAGCAGAGUGCUCUGUCGGCACCAGUGGCCACCAUCCCUUCACACCACUGUCCUACUUACAGGAAUUUAAUAUUUUUAAAAGUUUUACAAUUCUGUAUAUUCAAAGAUUGUU; value = 0.25 ratio
Sequence = GUUUUUGAGCAUACAAAAUGUUUAUCAAAUGCUGGGUGUGAAAUGAAGUCAUUUAGCAUCAGGUUGUUUGUUAUAUUUUAGCAAUUAGAUGUCUUUAAACCAGAGGCACACUGCCCUUGU; value = 0.725 ratio
Sequence = GGUUCUGUCUGUUGGUGCAGAGUGCUCUGCGCCAGUGCUCAUCAUCCCUUCGUACUGAACCUAGCUAUAGGAAUUUAAUAUUUUUAAAAGUUUUACAUUGCUGUAUAUUCAAAGAUUUGU; value = 0.581 ratio

Sample 4
Target: RNA binding protein fox-1 homolog 2, RRM domain, GST-SBP tag (RBFOX2, Homo sapiens, UniProt O43251-10, residues 100-194)
Method: RNA Bind-n-Seq
Form: RNA
Medium: in vitro
Tested at: 365 nM
Setting: natural RNA segment, single round, ends assumed
Baseline: no-protein control
Reading: higher = stronger binding
Quantity: RBNS enrichment (R)
Shared flanks, not repeated: GGGAGUUCUACAGUCCGACGAUC … UGGAAUUCUCGGGUGCCAA
Target sequence (chain): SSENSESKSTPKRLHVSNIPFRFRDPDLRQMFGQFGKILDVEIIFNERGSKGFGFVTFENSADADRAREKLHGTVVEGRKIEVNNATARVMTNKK
Sequence = UUCCCUUCCUUAUGUCUCCAGUCUGGUGCCAGGUAGUGGAGUAAAAAAGGAGACAGUUUAUUUUUUUAUUCUAUGUGCACACUUACAGUAUACAUAUAUAUUUAUAUCAC; value = 0.985
Sequence = AUGCUUGCCUCGCAUAGAGUGCAGUUGGUAUUCAUUUACCUAUGUGCGCCAGUUUGGGUUGCCGUUACCAGUUCAAUAUAGCCCUGCAUUUAAAAUUCCUUUUAAGAUUC; value = 0.748
Sequence = GUGUGUUUUGUUAAUACAAGAGGCCGGGUUUGGGGCUUGUGUUUGUCAAUAAACUCUUUGGCGCUGGUUCCUUGGUUUUCUUGUGCUGUGAGGUUGGCAGUUAACUAACU; value = 0.618
Sequence = UGGAGCCCCAGCCCCACCUUAGCCCUGCUGAGGCUCCAUGGCUUCUCCACUUCUUCUCAUGUGACCUCACAGUGUUGCUACUGUUCCUAAUAAAGUUUUAAGUUAUUAGA; value = 0.628
Sequence = GCCUCUGCUCCUGCUCCUGCCUGCAUGUUCUCUCUGUUGUUGGAGCCUGGAGCCUUGCUCUCUGGGCACAGAGGGGUCCACUCUCCUGCCUGCUGGGACCUAUGGAAGGG; value = 8.98
Sequence = UGGCUCGGGCCAGACUUCAUCCAUUUAGAGAGAAGCAGUACUUCCUGUUUGUGUGCCCAUCUUAAAUACCUUGAAAAGUACUAUGUCCCAGGUGGUGUCAUGGAUGCUUU; value = 0.325
Sequence = CGGGAGAUUGAGUCUGCACAUCACCAGUUGCCAUGUUCACUGGGCCAGUGCCCACCCGUCCACGUUGCUGACAUUGCCACGCUUUGAGGUGUGGUGGUCGCUGGGACCCG; value = 0.396
Sequence = GGAUGUUUCCCUCACUGUGUUCUCUUCGUGGGUUGUUUCCUUGUGGGUCAUAGUCAUACCUUCUGAUGAGGUGGAGCCAACACCAGCAAAGUAUGAUGGCCCUGUAGCCU; value = 0.965
Sequence = AAUUCAGCACCUAUUUUGAAUUAAUGUGAGACCACAGGUGGCAGGCAGAUUCCUGCUUGGCAUAAGCAUUUGUAGGUCUUCAUUCAAUUCUGUUAGAUUUUUUUAUUGGA; value = 0.584
Sequence = GGAAUUCUGAAUUCUUAGAUUUGAUUAUCCCAGAUCAUUUUUGCUAAGAAAAAUUCUUAUUUCUUUUUUUCACAGUGAACAUAAUCCUAAAUCCUUGGAUAUUUUUAGAA; value = 0.51
Sequence = GUAAUUCCCACCCCUCUUGCUUCUUCCCCACCUCACCAUCUCCCAGACCCUCUUCCCUUUGCCCUUCUCCUCCAAUACAUAAAGGACACAGACAAGGAACUUGCUGAAAG; value = 0.555
Sequence = AGGGUUUCCUCUCAGUCAUUUGUUUACCAGAAACAUGAAAACUGCCUGUCUGGCCGGGCCGCACUUGUGGCCCCCGGGACCCCACCUCUGGCCCCACCUCCCUCAAGUCU; value = 0.33

Excerpt of the above (sample 1):
Modification = 2'F-ANA at 2 3 4 8 15; value = 678 a.u.
Modification = 2'F-ANA at 2 5 6 8 11 12 13 15; value = 87.2 a.u.
Modification = 2'F-ANA at 2 3 6 7 8 9 11 15; value = 674 a.u.
Modification = 2'F-ANA at 2 3 4 5 11 12 13 14; value = 50.7 a.u.
Modification = 2'F-ANA at 7 11 12 14 15; value = 224 a.u.
